Measurements collected from several papers.
Each line is one published result; not all experiments were run side by side. Several values in a cell are separate wells, animals, samples, runs or records.
Target: Serine/threonine-protein kinase Nek1 (NEK1, Homo sapiens, UniProt Q96PY6)

SMILES | assay | conditions | how to read | quantity | value
CN1CCN(Cc2ccc(-c3ccc(CO[C@H]4CCC[C@@H]4NC(=O)c4cc(-c5cnn(C)c5)cnc4N)cc3)cc2)CC1 | enzyme activity, inhibitor | 0.1 µM |  | inhibition | 6%
COc1cc(-n2cc3cc(F)cc(C(N)=O)c3n2)cc(Cl)c1C1CC(O)(CCO)Cc2ccccc21 (stereo not shown) | enzyme activity, inhibitor | 10 µM |  | inhibition | 3.2%
Cc1ccc(-c2c(/C=C(\C#N)C(=O)NC(C)C)n(CCCO)c3ncnc(N)c23)cc1 | cell-free assay, competition with immobilised ligand | 1 µM |  | remaining binding | 100%
NC(=O)C[C@H]1CCc2sc3ncnc(O[C@H]4CC[C@H](N5CCOCC5)CC4)c3c21 | enzyme activity, inhibitor | 10 µM |  | inhibition | 11%
COc1cc(Nc2nc(C)cc(-c3cnn4nc(OC)ccc34)n2)cc(C(F)(F)F)c1 | inhibitor | 1 µM | relative to: control | remaining activity | 100%
Cc1cccc(O[C@H]2CCC[C@@H](C(C)CNCc3ccncc3)C2)c1 (relative stereo) | enzyme activity, inhibitor | 10 µM |  | inhibition | -8%
Nc1ncc2c(n1)-c1c([nH]c3ccc(C4=CCOCC4)cc13)CCC2 | binding, competition with immobilised ligand | 1 µM |  | remaining binding | 100%
C=CC(=O)N1CCCC(n2c(=O)c3ncccc3n(Cc3ccc(Oc4ccccc4)cc3)c2=O)C1 (stereo not shown) | cell-free assay, competition with immobilised ligand | 1 µM |  | remaining binding | 93%
C[C@H](c1ccccc1)N1C(=O)C2=Nc3cccc(Cl)c3CN2C1=S | enzyme activity, inhibitor | 1.5 µM |  | inhibition | ≥ 85%
COc1ccc(O)cc1-c1c[nH]c2ncc(-c3cncc(C(=O)N(C)C)c3)cc12 | binding, competition with immobilised ligand | 0.2 µM |  | inhibition | 5.59%
COc1c(Cl)cccc1Nc1c(-c2ccncc2C#C[C@@]2(C)CCCN2C(=O)/C=C/CN(C)C)[nH]c2c1C(=O)NCC2 | binding, competition with immobilised ligand | 3 µM |  | remaining binding | 72%
C=CC(=O)Nc1cccc(-c2cnc3[nH]cc(C(=O)NC(C)(C)C)c3n2)c1 | kinase activity | 0.1 µM |  | inhibition | 28% and 29%
Cc1cnc2nc1Nc1cccc(c1)COC/C=C/COCc1cc(ccc1OCCN1CCOCC1)N2 | binding | 0.1 µM |  | remaining binding | 100%
CNC1C[S+]2CC[S+]3CC[S+](C1)[Ru-4]321([N]=C=S)[n]2c3ccc(OC)cc3c3c4c(c5cc(F)c[n+]1c5c32)C(=O)NC4=O (stereo not shown) | KinomeScan | 0.1 µM | relative to: untreated | remaining binding | 100%
C[C@H]1CN(C(=O)c2cn(-c3ccnc(N)n3)c3cc(C#CC4(O)CCCCC4)ccc23)CCN1 | enzyme activity, inhibitor, FRET | 1 µM |  | inhibition | 13%
COCC12C(=O)NC3C4(C(OC)CC1O)C1CC5(O)C(OC)C(O)C(OC(C)=O)(C1C5OC(=O)c1ccccc1)C3(O)C(OC)C24 (stereo not shown) | kinase activity, inhibitor, ProQinase kinase profiling | 25 µM | relative to: control | remaining activity | 103% and 92%
